# Results collected from several papers.
# Numbered parts are unrelated; each lists some results of a single study.

# Study 1
# Target: Prothrombin, mature alpha-thrombin (F2, Homo sapiens, UniProt P00734)
# Technique: aptamer microarray, sandwich
# Molecule type: DNA with 2'F-ANA
# Matrix: in vitro
# Tested at: 200 nM
# Notes: whole 15-mer aptamer, many near background
# With: Cy3 exosite-II aptamer, 400 nM
# Direction: higher = stronger binding
Strand,mean fluorescence intensity [a.u.]
GGTTGGTGTGGTTGG (2'F-ANA at 1 2 4 5 8 10 11 12 13 14),45.6
GGTTGGTGTGGTTGG (2'F-ANA at 1 2 5 6 8 11),54.1
GGTTGGTGTGGTTGG (2'F-ANA at 1 3 4 6 7 14 15),69.2

# Study 2
# Target: Histone acetyltransferase KAT6A, winged helix 1, GST fusion (KAT6A, Homo sapiens, UniProt Q92794, residues 1-85)
# Technique: protein binding microarray
# Molecule type: double-stranded DNA, one strand shown
# Matrix: in vitro
# Tested at: not given
# Notes: 8-mer, flanks averaged, mean of 2 arrays, mostly near background
# Reference: not given
# Direction: higher = stronger binding
# Residues (chain): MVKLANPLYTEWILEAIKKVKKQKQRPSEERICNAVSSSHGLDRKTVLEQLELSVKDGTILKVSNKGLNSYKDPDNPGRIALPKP
Strand,E-score
CCTTCCTC,-0.202
CAAGAGTA,-0.216
TCTTCCAA,-0.154
CGAAGCCC,0.0384

# Study 3
# Target: Centromere-binding protein 1, full length, N-terminal tag (CBF1, Saccharomyces cerevisiae, UniProt P17106, residues 1-351)
# Chain of UniProt P17106 (whole entry, looked up): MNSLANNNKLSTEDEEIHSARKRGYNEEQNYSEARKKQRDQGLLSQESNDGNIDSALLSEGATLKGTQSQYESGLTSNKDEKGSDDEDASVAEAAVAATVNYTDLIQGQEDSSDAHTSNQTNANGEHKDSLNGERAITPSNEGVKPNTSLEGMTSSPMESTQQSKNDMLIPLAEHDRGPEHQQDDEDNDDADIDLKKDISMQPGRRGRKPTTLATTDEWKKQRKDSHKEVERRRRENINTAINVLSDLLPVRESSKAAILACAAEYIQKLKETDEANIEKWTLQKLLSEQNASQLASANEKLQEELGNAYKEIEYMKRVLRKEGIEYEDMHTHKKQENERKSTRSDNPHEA
# Technique: protein-binding microarray
# Molecule type: double-stranded DNA, one strand shown
# Matrix: in vitro
# Tested at: 0.8 µM
# Notes: whole 60-bp probe, no competitor
# Direction: higher = stronger binding
Strand,fluorescence intensity
CCTAACTACTATAATCACCTTTAATAGCTTCGTACAGTCTTGATTCGCTTGACGCTGCTG,515 a.u.
CTATTAGAAAGTACAAACGTGTCAGCGTATTTATTCGTCTTGATTCGCTTGACGCTGCTG,543 a.u.
GAACAAACCATCTGATGTTAGATAATATATAAGTAGGTCTTGATTCGCTTGACGCTGCTG,646 a.u.
CTACTATTTTTCTATCACGTAAGTTGACATTTGTTCGTCTTGATTCGCTTGACGCTGCTG,651 a.u.

# Mixed results
Molecule,target,assay,test system,conditions,scale,measurement,value
"PhoQ, residues 284 288 289 292 302 303 TTSMTC","PhoP, residues 12 14 15 18 19 LWHVM (Escherichia coli, UniProt P23836)","Sort-seq, measured: YFP reporter",E. coli,"PhoQ-PhoP variant library, with: 10 µM Mg2+","reference: high Mg2+ state, higher = stronger signaling",fold induction,3.75
